Results collected from several papers.
Lines come from different studies, so protocols differ.
Chain of UniProt Q8N2K0 (whole entry, looked up): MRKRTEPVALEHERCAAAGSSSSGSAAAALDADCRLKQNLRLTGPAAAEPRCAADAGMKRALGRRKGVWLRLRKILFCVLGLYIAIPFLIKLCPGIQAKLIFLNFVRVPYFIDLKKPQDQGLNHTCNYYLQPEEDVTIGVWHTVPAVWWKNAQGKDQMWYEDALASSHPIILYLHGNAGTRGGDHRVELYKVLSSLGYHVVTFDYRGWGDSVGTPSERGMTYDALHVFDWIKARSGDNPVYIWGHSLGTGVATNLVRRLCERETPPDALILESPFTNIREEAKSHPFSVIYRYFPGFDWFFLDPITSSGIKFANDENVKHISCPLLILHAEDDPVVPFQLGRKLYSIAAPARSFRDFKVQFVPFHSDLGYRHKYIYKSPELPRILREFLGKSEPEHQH
Chain of UniProt P53671 (whole entry, looked up): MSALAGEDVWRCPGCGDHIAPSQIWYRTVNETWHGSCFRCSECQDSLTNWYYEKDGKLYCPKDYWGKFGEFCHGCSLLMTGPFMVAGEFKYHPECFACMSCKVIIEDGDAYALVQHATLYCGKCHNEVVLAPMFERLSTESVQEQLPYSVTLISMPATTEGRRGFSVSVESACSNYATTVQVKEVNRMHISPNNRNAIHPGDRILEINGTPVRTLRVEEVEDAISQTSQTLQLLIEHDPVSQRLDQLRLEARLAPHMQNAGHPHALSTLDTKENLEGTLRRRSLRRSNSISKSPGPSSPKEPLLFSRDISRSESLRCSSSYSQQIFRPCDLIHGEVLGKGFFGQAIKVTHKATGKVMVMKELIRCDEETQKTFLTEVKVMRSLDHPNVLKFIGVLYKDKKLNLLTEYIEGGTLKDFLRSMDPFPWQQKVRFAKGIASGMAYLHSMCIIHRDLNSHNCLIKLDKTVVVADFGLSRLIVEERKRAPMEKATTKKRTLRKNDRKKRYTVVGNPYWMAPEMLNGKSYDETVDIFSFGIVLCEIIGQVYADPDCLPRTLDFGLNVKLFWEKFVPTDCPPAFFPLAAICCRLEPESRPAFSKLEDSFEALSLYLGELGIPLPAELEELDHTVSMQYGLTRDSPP
Chain of UniProt P18825 (whole entry, looked up): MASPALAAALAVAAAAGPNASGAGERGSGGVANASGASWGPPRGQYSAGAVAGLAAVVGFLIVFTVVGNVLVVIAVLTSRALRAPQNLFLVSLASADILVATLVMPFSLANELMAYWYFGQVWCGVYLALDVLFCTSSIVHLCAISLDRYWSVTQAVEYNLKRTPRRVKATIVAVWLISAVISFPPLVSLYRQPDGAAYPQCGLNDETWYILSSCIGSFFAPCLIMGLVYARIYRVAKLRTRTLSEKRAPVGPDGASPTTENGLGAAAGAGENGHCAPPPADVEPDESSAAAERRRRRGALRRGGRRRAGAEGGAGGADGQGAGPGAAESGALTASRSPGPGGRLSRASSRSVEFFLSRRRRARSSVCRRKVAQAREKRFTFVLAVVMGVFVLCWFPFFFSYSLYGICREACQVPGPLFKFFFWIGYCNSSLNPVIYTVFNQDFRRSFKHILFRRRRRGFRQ
Chain of UniProt O75116 (whole entry, looked up): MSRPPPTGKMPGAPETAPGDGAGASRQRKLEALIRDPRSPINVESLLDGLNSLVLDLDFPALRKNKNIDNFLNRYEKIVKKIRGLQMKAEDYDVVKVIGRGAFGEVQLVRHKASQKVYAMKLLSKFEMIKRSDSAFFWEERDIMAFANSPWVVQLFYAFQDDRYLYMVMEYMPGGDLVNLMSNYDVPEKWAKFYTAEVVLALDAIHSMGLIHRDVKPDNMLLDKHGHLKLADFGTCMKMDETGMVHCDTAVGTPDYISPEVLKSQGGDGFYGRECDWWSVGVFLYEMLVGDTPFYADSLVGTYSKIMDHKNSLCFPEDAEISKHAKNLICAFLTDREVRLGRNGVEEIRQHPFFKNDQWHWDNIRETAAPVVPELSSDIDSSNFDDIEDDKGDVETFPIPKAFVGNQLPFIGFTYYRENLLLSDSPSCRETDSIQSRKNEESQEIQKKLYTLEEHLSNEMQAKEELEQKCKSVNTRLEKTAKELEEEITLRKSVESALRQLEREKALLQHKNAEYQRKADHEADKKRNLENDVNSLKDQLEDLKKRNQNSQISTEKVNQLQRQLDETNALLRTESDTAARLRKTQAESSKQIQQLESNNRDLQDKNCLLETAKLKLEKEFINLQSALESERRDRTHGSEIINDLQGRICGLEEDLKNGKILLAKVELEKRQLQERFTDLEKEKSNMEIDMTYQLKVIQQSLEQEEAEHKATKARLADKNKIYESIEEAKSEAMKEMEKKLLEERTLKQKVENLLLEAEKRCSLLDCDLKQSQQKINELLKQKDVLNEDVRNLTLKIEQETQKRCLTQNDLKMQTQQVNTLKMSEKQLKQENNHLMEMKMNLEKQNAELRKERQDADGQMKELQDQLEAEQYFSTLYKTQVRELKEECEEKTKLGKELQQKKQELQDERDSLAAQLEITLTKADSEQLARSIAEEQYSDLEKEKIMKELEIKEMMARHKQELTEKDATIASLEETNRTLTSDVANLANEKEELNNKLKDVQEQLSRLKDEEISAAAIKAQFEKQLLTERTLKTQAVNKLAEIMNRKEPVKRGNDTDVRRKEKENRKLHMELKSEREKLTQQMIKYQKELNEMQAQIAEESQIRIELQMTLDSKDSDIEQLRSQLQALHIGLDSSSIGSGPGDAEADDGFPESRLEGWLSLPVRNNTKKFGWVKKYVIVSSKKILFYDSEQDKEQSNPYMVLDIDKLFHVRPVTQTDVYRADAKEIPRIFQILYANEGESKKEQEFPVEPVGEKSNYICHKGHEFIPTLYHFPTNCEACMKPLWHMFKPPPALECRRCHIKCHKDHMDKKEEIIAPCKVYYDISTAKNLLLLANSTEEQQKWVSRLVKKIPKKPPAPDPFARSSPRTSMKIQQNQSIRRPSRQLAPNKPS
Chain of UniProt P29275 (whole entry, looked up): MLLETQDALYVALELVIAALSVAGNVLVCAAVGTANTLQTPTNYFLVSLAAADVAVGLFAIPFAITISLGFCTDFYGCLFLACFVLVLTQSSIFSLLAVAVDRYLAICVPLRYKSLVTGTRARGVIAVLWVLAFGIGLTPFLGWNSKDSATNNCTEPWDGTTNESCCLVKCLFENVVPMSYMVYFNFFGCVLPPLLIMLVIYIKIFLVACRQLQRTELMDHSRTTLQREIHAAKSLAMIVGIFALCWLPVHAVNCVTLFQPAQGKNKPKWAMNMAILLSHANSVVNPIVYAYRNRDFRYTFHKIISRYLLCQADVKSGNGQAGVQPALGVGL
Chain of UniProt Q9NS67 (whole entry, looked up): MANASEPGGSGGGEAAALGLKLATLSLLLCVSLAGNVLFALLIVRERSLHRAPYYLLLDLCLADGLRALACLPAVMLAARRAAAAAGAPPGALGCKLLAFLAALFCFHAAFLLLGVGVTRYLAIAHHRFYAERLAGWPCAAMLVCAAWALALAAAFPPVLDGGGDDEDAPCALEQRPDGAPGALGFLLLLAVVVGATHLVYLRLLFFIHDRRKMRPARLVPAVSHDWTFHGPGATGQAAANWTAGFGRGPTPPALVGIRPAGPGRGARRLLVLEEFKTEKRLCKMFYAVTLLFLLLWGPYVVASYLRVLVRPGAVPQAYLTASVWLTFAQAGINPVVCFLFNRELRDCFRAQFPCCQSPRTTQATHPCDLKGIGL
Chain of UniProt O70528 (whole entry, looked up): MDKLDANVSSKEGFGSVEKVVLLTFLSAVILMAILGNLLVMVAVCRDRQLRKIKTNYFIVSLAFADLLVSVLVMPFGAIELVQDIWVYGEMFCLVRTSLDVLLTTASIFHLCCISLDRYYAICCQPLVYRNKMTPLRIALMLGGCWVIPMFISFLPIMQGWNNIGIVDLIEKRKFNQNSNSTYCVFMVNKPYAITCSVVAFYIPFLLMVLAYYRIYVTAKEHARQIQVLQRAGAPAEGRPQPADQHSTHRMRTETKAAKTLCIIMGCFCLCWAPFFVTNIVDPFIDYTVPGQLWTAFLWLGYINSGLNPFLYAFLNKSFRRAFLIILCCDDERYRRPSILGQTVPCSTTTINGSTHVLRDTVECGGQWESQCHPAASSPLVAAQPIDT
Chain of UniProt P28336 (whole entry, looked up): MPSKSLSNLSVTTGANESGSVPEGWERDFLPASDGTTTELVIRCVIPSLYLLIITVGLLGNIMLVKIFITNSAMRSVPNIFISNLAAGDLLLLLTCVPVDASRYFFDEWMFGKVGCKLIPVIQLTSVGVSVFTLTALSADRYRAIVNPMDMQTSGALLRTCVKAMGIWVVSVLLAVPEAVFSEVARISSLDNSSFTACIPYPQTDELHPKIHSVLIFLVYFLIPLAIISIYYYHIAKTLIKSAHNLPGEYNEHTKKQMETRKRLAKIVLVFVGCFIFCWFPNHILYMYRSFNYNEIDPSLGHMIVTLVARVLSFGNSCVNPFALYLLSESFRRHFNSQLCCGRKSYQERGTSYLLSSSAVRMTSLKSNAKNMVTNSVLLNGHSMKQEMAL

SMILES	tested on	test	system	conditions	how to read	quantity	result
CC[C@H](C)[C@H](NC(=O)[C@H](Cc1ccccc1)NC(=O)[C@H](CCC(=O)O)NC(=O)[C@H](CCCNC(=N)N)NC(=O)[C@H](C)NC(=O)[C@H](C)NC(=O)[C@H](CCC(N)=O)NC(=O)[C@H](CCC(=O)O)NC(=O)[C@H](CCC(=O)O)NC(=O)[C@H](CC(C)C)NC(=O)[C@H](Cc1ccc(O)cc1)NC(=O)[C@H](CO)NC(=O)[C@H](CO)NC(=O)[C@@H](NC(=O)[C@H](CC(=O)O)NC(=O)[C@H](CO)NC(=O)[C@@H](NC(=O)[C@H](Cc1ccccc1)NC(=O)[C@@H](NC(=O)CNC(=O)[C@H](CCC(=O)O)NC(=O)[C@H](C)NC(=O)CCc1c[nH]cn1)[C@@H](C)O)[C@@H](C)O)C(C)C)C(=O)N[C@@H](C)C(=O)N[C@@H](Cc1c[nH]c2ccccc12)C(=O)N[C@@H](CC(C)C)C(=O)N[C@H](C(=O)N[C@@H](CCCNC(=N)N)C(=O)NCC(=O)N[C@@H](CCCNC(=N)N)C(=O)N[C@@H](CCCCNC(=O)COCCOCCNC(=O)COCCOCCNC(=O)CC[C@H](NC(=O)CCCCCCCCCCCCCCCCC(=O)O)C(=O)O)C(=O)NCC(=O)NCC(=O)N[C@@H](CO)C(=O)N[C@@H](CCCCNc1c(NCCCCCN(O)C(=O)CCC(=O)NCCCCCN(O)C(=O)CCC(=O)NCCCCCN(O)C(C)=O)c(=O)c1=O)C(=O)O)C(C)C [zirconium-89 labelled]			rat, intestine	iv, 3 nmol/kg, 72 h, ex vivo		tissue uptake	0.14 %ID/g
COc1ccc(N2C(=O)N(c3c(C)cccc3Cl)Cc3cnc(Nc4ccc(C5CCN(C)CC5)cc4OC)nc32)nc1	Serine/threonine-protein kinase N1 (PKN1, Homo sapiens, UniProt Q16512)	kinase activity		0.5 µM		inhibition	0.605%
[2H]c1c([2H])c([C@]2([2H])CCCN2C(=O)C(C)(C)Oc2ccc3cn[nH]c3c2)c([2H])c([2H])c1C([2H])([2H])[2H]	LIM domain kinase 2 (LIMK2, Homo sapiens, UniProt P53671)	KINOMEscan		1 µM	relative to: DMSO control	remaining binding	86%
COc1cc(N)c(Cl)cc1C(=O)NC1CN2CCC1CC2 (stereo not shown)	Probable G-protein coupled receptor 27 (Homo sapiens, UniProt Q9NS67)	β-arrestin recruitment, TANGO luminescence, refers to: GPR27		concentration not given	relative to: basal luminescence	log2 fold change	0.565
O=C(c1ccc(Cl)cc1)N1CCN2C(=O)N(OC(=O)N3CCOc4ccccc43)C(=O)C2C1 (stereo not shown)	Lysophosphatidylserine lipase ABHD12 (Homo sapiens, UniProt Q8N2K0)	enzyme activity, inhibitor, MS-based ABPP	SW-620 in situ	10 µM, 2 h, 37 °C	relative to: compound over DMSO, lower = stronger inhibition	median ratio	1.13
O=C(Nc1cccnn1)N1CCC(=Cc2cccc(Oc3ccc(C(F)(F)F)cn3)c2)CC1	Abhydrolase domain-containing protein 11 (Rattus norvegicus, UniProt D3ZXK4)	probe labelling, inhibitor, competitive ABPP with azido-FP probe, refers to: Abhd11	rat brain soluble fraction	0.01 µM		inhibition	29.7%
CO[C@H]1C[C@@H]2CC[C@@H](C)[C@@](O)(O2)C(=O)C(=O)N2CCCC[C@H]2C(=O)O[C@H]([C@H](C)C[C@@H]2CC[C@@H](OC(=O)NCCOCCOCCOCCOCCOCCOCCOCCOCCC(=O)N3CCc4cc(Cn5nc(-c6ccc7oc(N)nc7c6)c6c(N)ncnc65)ccc4C3)[C@H](OC)C2)C[C@@H](O)[C@H](C)/C=C(\C)[C@@H](O)[C@@H](OC)C(=O)[C@H](C)C[C@H](C)/C=C/C=C/C=C/1C		dose-escalation trial	patients with advanced solid tumours	intravenous, 1.6 mg/3 mg weekly, any grade		decreased appetite leading to dose reduction	0%
C[C@H]1CN(c2n[nH]c3nc(N[C@H]4CC[C@H](NS(=O)(=O)CCC(F)(F)F)CC4)ncc23)CCO1	Rho-associated protein kinase 2 (ROCK2, Homo sapiens, UniProt O75116)	inhibitor, Kinobeads competition profiling		0.032 µM	relative to: vehicle	relative abundance	1.03
O=C(Nc1cnccc1Cl)N1CCN(Cc2ccc3c(c2)OC(F)(F)O3)CC1	Alpha-2C adrenergic receptor (ADRA2C, Homo sapiens, UniProt P18825)	binding		50 µM, with: [3H]rauwolscine		inhibition	37%
CN1CCN(c2cc(-c3ccncc3)c(-c3ccc4ccccc4c3)nn2)CC1	Neuromedin-B receptor (NMBR, Homo sapiens, UniProt P28336)	agonist, FLIPR		12.5 µM		activation	-0.2%
COc1cc(Nc2ncc(F)c(Nc3ccc4c(n3)NC(=O)C(C)(C)O4)n2)cc(OC)c1OC	Adenosine receptor A2b (ADORA2B, Homo sapiens, UniProt P29275)					IC50	> 10 µM
CN(C(=O)n1cnc(-c2ccc[n+]([O-])c2)c1)C1CCCCC1	5-hydroxytryptamine receptor 4 (HTR4, Cavia porcellus, UniProt O70528)	radioligand binding		50 µM, with: [3H]GR-113808		inhibition	23%
CC[C@H](C)[C@@H]1NC(=O)[C@@H]2CCCN2C(=O)[C@H](CC(C)C)NC(=O)[C@H](CC(C)C)NC(=O)CNC(=O)[C@@H](NC(=O)[C@@H](NC(=O)[C@H](CC(=O)O)NC(=O)CNC(=O)[C@@H](NC(=O)[C@H](C)NC(=O)CNC(=O)[C@H](CCCCN)NC(=O)[C@H](CC(C)C)NC(=O)[C@H](CC(C)C)NC(=O)[C@H](CCCCN)NC(=O)CNC(=O)[C@@H](NC(=O)[C@@H](N)CC(C)C)C(C)C)C(C)C)C(C)C)CSSC[C@@H](C(=O)O)NC1=O		RNA-seq, refers to: Slc17a9	mouse, traumatic brain injury model, frontal cortex and hippocampus	dose not given	relative to: TBI alone	log2 fold change	-1.96

Some of these lines once more:
SMILES	tested on	test	system	conditions	how to read	quantity	result
O=C(c1ccc(Cl)cc1)N1CCN2C(=O)N(OC(=O)N3CCOc4ccccc43)C(=O)C2C1 (stereo not shown)	Lysophosphatidylserine lipase ABHD12 (Homo sapiens, UniProt Q8N2K0)	enzyme activity, inhibitor, MS-based ABPP	SW-620 in situ	10 µM, 2 h, 37 °C	relative to: compound over DMSO, lower = stronger inhibition	median ratio	1.13
COc1cc(N)c(Cl)cc1C(=O)NC1CN2CCC1CC2 (stereo not shown)	Probable G-protein coupled receptor 27 (Homo sapiens, UniProt Q9NS67)	β-arrestin recruitment, TANGO luminescence, refers to: GPR27		concentration not given	relative to: basal luminescence	log2 fold change	0.565
